Measurements of several laboratories.
Each line is one published result; not all experiments were run side by side. ± gives the spread as reported.
Organism: Escherichia coli

For `CC[C@H]1OC(=O)[C@H](C)[C@@H](O[C@H]2C[C@@](C)(OC)[C@@H](O)[C@H](C)O2)[C@H](C)[C@@H](O[C@@H]2O[C@H](C)C[C@H](N(C)C)[C@H]2O)[C@](C)(OC)C[C@@H](C)C(=O)[C@H](C)[C@@H](O)[C@]1(C)O`, the IC50 was 14 ± 14 nM (in vitro translation, SNAPf fluorescence; E. coli MRE600 70S ribosomes; 2 h, 37 °C).
The inhibition zone of `COc1cc(C=Nc2ccc(Cl)cc2Cl)ccc1O` is reported as ≤ 16.6 mm (microbial growth, disc diffusion; 2000 µg/mL, 24 h).
`GWGSFFKKAAHVGKHVGKAALTHYL-NH2 (C-amide)` gave an MIC50 of 0.66 ± 0.22 µg/mL (bacterial growth, broth microdilution; peptide, NCTC 9001, Mueller-Hinton broth; overnight, 37 °C).
For `CC[C@H](C)[C@H](NC(=O)[C@H](CCCNC(=N)N)NC(=O)CNC(=O)[C@H](CC(C)C)NC(=O)[C@H](Cc1ccccc1)NC(=O)[C@H](CCCCN)NC(=O)[C@H](CO)NC(=O)[C@H](Cc1ccccc1)NC(=O)[C@H](Cc1c[nH]c2ccccc12)NC(=O)[C@H](CCC(N)=O)NC(=O)[C@@H](NC(=O)[C@@H](N)Cc1ccccc1)C(C)C)C(=O)N[C@@H](CC(C)C)C(N)=O`, the MIC was > 100 µg/mL (ATCC 25922; 1 h, 37 °C, dividing cells in LB).
`CC(=O)N(O)CCCCCNC(=O)CCC(=O)N(O)CCCCCNC(=O)CCC(=O)N(O)CCCCCNC(=O)CCC(=O)N1CCN(c2cc3c(cc2F)c(=O)c(C(=O)O)cn3C2CC2)CC1` gave an MIC90 of 1.9 µM (K12; 18 h, 37 °C, iron-deficient medium with 2,2'-bipyridine, together with: 100-fold excess Fe-siderophore complex).
`TRSSRAGLQWPVGRVHRLLRK-NH2 (C-amide)` has an MIC50 of > 25.9 µg/mL (bacterial growth, broth microdilution; peptide, TOP10, Mueller-Hinton broth; overnight, 37 °C).
For `CC[C@H](C)[C@H](NC(=O)[C@H](C)NC(=O)[C@@H]1CCCN1C(=O)[C@H](CCCCN)NC(=O)[C@@H](NC(=O)[C@H](Cc1c[nH]c2ccccc12)NC(=O)CNC(=O)[C@H](CCC(N)=O)NC(=O)[C@@H](NC(=O)[C@H](CC(N)=O)NC(=O)[C@H](CC(=O)O)NC(=O)[C@H](CCCNC(=N)N)NC(=O)[C@H](CC(C)C)NC(=O)[C@@H](NC(=O)[C@@H](N)CCCCN)C(C)C)[C@@H](C)CC)[C@@H](C)O)C(=O)N[C@@H](CCCNC(=N)N)C(=O)N[C@@H](CCCNC(=N)N)C(=O)N[C@@H](CC(C)C)C(=O)N[C@@H](C)C(=O)N[C@@H](CCCNC(=N)N)C(=O)N[C@@H](CCCNC(=N)N)C(=O)NCC(=O)O`, the fluorescence ratio was 1.13 ± 0.08 (membrane permeabilization, propidium iodide uptake; 2 µM, 5 min, pH 7.4; baseline: before addition).
The FIC index of `CO/N=C(\C(=O)N[C@@H]1C(=O)N2C(C(=O)O)=C(CSc3nc(=O)c(=O)[nH]n3C)CS[C@H]12)c1csc(N)n1` is reported as 0.25 (checkerboard; ATCC 25922; together with: magainin II).
With `COc1ccc(C(=O)NN=Cc2ccc(O)c3ncccc23)cc1` the EC50 was > 100 µM (bacterial growth; NEB 5-alpha, cation-supplemented liquid medium).
For `CC[C@H]1OC(=O)[C@H](C)[C@@H](O[C@H]2C[C@@](C)(OC)[C@@H](O)[C@H](C)O2)[C@H](C)[C@@H](O[C@@H]2O[C@H](C)C[C@H](N(C)C)[C@H]2O)[C@](C)(O)C[C@@H](C)/C(=N\OCOCCOC)[C@H](C)[C@@H](O)[C@]1(C)O`, the IC50 was 27 ± 7 nM (in vitro translation, SNAPf fluorescence; E. coli MRE600 70S ribosomes; 2 h, 37 °C).
For `COc1cc(C=Nc2cccc(O)c2)ccc1O`, the inhibition zone was ≤ 16.6 mm (microbial growth, disc diffusion; 2000 µg/mL, 24 h).
The MIC50 of `GIGKFLHSAKKFGKAFVGEIMNS-NH2 (C-amide)` is reported as 6.86 ± 1.58 µg/mL (bacterial growth, broth microdilution; peptide, NCTC 9001, Mueller-Hinton broth; overnight, 37 °C).
For `KFFKFFKFFK (peptide-PNA conjugate)`, “reduction in viable count” read 1 to 2 log cfu/mL (peptide, UPEC 536; 2.5 µM, 60 to 120 min).
The MIC90 of `CC[C@H](C)[C@H](NC(=O)CNC(=O)[C@H](CCC(=O)O)NC(=O)[C@H](CO)NC(=O)[C@@H](NC(=O)[C@H](CCCNC(=N)N)NC(=O)[C@H](CCCCN)NC(=O)[C@H](CCCCN)NC(=O)[C@H](C)NC(=O)[C@H](CO)NC(=O)[C@H](CC(N)=O)NC(=O)[C@H](CCC(=O)O)NC(=O)[C@H](CC(C)C)NC(=O)[C@H](CCCCN)NC(=O)[C@H](CCCCN)NC(=O)[C@H](C)NC(=O)[C@@H](NC(=O)[C@H](CCCCN)NC(=O)[C@H](CO)NC(=O)[C@H](CC(C)C)NC(=O)[C@H](Cc1c[nH]c2ccccc12)NC(=O)[C@@H](N)CO)[C@@H](C)O)[C@@H](C)CC)C(=O)N[C@@H](C)C(=O)N[C@H](C(=O)N[C@@H](C)C(=O)N[C@H](C(=O)N[C@@H](CCC(N)=O)C(=O)NCC(=O)NCC(=O)N1CCC[C@H]1C(=O)N[C@@H](CCCNC(=N)N)C(=O)O)[C@@H](C)CC)[C@@H](C)CC` is reported as 2 µg/mL (broth microdilution; 18 h, 30 clinical isolates).
For `CCC(=O)O[C@H]1[C@H](C)O[C@@H](O[C@H]2[C@H](N(C)C)[C@@H](O)[C@H](O[C@H]3[C@@H](CC=O)C[C@@H](C)[C@@H](O)/C=C/C=C/C[C@@H](C)OC(=O)C[C@@H](O)[C@@H]3OC)O[C@@H]2C)C[C@@]1(C)O`, “inhibition zone diameter” read 19 mm (growth; SG 458, DMSO–methanol; 50 µL of 2.0 mM, 24 h, 37 °C).
With `CC1(C)S[C@@H]2[C@H](NC(=O)[C@H](N)c3ccc(O)cc3)C(=O)N2[C@H]1C(=O)O` the inhibition zone was 12.9 mm (microbial growth, disc diffusion; ATCC25922; 500 µg/mL).
The FIC index of `CC[C@H]1OC(=O)[C@H](C)[C@@H](O[C@H]2C[C@@](C)(OC)[C@@H](O)[C@H](C)O2)[C@H](C)[C@@H](O[C@@H]2O[C@H](C)C[C@H](N(C)C)[C@H]2O)[C@](C)(OC)C[C@@H](C)C(=O)[C@H](C)[C@@H](O)[C@]1(C)O` is reported as 1.5 (checkerboard; ATCC 25922; together with: magainin II).
The selectivity ratio of `O=CN(O)CCCP(=O)(O)O` is reported as 14 fold (BL21(DE3); baseline: E. coli growth over P. falciparum IC50).
With `CC1(C)S[C@@H]2[C@H](NC(=O)[C@H](N)c3ccc(O)cc3)C(=O)N2[C@H]1C(=O)O` the susceptible isolates was 50% (hospitalized pneumonia patients, clinical isolates; Fine score 70 or more).
